{"data": "Experimental data from different studies", "note": "Every numbered part comes from another study and shows a few of its results, in no order. Substitutions count along the parent as printed."}
{"data": "Block 1", "target": "CCNA1, cyclin fold, Cln2 fusion (human)", "method": "yeast growth competition, sequencing", "sample": "yeast", "notes": "weak parent motif", "baseline": "not given", "direction": "higher = stronger binding", "starting sequence": "CDC25A docking peptide (human); PPHRRRLLFACSP; partner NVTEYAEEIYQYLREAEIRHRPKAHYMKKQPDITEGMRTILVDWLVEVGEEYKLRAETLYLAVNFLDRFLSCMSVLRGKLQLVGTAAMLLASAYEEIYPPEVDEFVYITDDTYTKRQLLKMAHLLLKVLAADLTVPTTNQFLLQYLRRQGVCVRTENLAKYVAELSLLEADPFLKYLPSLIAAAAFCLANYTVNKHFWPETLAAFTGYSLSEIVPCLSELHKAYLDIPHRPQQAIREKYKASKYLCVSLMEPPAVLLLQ"}
{"Variant": "P1M", "normalised enrichment score": 0.287}
{"Variant": "F9Y", "normalised enrichment score": 0.24}
{"Variant": "F9I", "normalised enrichment score": 0.34}
{"Variant": "P13L", "normalised enrichment score": 0.237}
{"Variant": "S12Q", "normalised enrichment score": 0.12}
{"Variant": "R4N", "normalised enrichment score": 0.382}
{"Variant": "R5D", "normalised enrichment score": 0.101}
{"data": "Block 2", "target": "RNA binding protein fox-1 homolog 2, RRM domain, GST-SBP tag (RBFOX2, Homo sapiens, UniProt O43251-10, residues 100-194)", "method": "RNA Bind-n-Seq", "form": "RNA", "sample": "in vitro", "tested at": "365 nM", "notes": "natural RNA segment, single round, ends assumed", "baseline": "no-protein control", "direction": "higher = stronger binding", "Target sequence (chain)": "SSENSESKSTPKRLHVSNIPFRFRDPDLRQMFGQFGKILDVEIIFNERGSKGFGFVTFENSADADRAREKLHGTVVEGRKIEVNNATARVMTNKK"}
{"Strand": "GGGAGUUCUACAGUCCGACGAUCCAGCACUUGGAAUUGUGUGUUCUUGUACAUUUUGUAUUUUAAAACCUUUUAUGGGAGUGCAGUGCUCCUUACACAAAUACAAAGGGAAGAAGAGCCAGCAGUUGAGGCUCUGGAAUUCUCGGGUGCCAA", "RBNS enrichment (R)": 0.696}
{"Strand": "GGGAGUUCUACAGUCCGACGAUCAAUUUUAUUUUAAAAUGUGUAUAUAUCAGGCUUAAUAAAGAUACUCUUUUAAGCUAUACACCUAGAAUUUGAGUUUUUCUGUUCAGUAUUUGGUUAUUUUGUGGCUAUAAUGGAAUUCUCGGGUGCCAA", "RBNS enrichment (R)": 0.505}
{"Strand": "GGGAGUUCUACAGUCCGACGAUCCUGCAGCUUCUUUUUCACAUGUAGUGUCUCCUUCAAGUUACAUCGUGUGUAUUAUUUAAUGUCACUAUUGGUUAGUGGCCAUUUUUCAGAACUGAAGAUGGAAUGGCCUGUGGAAUUCUCGGGUGCCAA", "RBNS enrichment (R)": 0.284}
{"Strand": "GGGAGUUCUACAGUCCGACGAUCAUUCCUUGAGACUCUUUAGCAUUAGUGCUCUGAGGUUAAAAGCAGUUCGGAAGACUCAUCUAGCCCUUGGGUGCUGACCAGCAGAGCUGCUAGUGGAUAUUGGAGUUACAUGGAAUUCUCGGGUGCCAA", "RBNS enrichment (R)": 0.247}
{"Strand": "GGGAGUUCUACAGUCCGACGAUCAGGUUCAGCCACAUGCCUAGACUUAUAUACUAGUUAGUGGUGCAGCCAGGGAGAGGACUCAGAUUUCCUGGAGGCAAAGUCUAUCUCUGAAACUCCAUGAAGACUUUUGCUGGAAUUCUCGGGUGCCAA", "RBNS enrichment (R)": 0.324}
{"data": "Block 3", "target": "Histone acetyltransferase KAT6A, winged helix 1, GST fusion (KAT6A, Homo sapiens, UniProt Q92794, residues 1-85)", "method": "protein binding microarray", "form": "double-stranded DNA, one strand shown", "sample": "in vitro", "tested at": "not given", "notes": "8-mer, flanks averaged, mean of 2 arrays, mostly near background", "baseline": "not given", "direction": "higher = stronger binding", "Target sequence (chain)": "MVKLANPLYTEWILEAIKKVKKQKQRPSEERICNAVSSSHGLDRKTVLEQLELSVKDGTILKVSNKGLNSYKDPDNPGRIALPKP"}
{"Strand": "CATGTTCA", "E-score": -0.205}
{"Strand": "GTTGACAA", "E-score": -0.0537}
{"Strand": "CGATTCAC", "E-score": -0.0379}
{"Strand": "AAGGCTTA", "E-score": -0.00082}
{"Strand": "CCATAACC", "E-score": -0.11}
{"Strand": "CCTCGACC", "E-score": -0.125}
{"Strand": "CTAAGAAG", "E-score": -0.177}
{"Strand": "TATAAAGA", "E-score": -0.0914}
{"Strand": "CTCAAAAA", "E-score": -0.165}
{"data": "Further values, each from its own experiment"}
{"Molecule": "PhoQ, residues 284 288 289 292 302 303 AEGLLW", "target": "PhoP, residues 12 14 15 18 19 IFFTR (Escherichia coli, UniProt P23836)", "test": "Sort-seq, item: YFP reporter", "system": "E. coli", "conditions": "PhoQ-PhoP variant library, added: 10 µM Mg2+", "how to read": "baseline: high Mg2+ state, higher = stronger signaling", "quantity": "fold induction", "result": 12.3}
{"note": "Repeated from above (block 3):"}
{"Strand": "CATGTTCA", "E-score": -0.205}
{"Strand": "GTTGACAA", "E-score": -0.0537}
{"Strand": "CCATAACC", "E-score": -0.11}
{"Strand": "CTCAAAAA", "E-score": -0.165}
